Results collected from several papers.
Compare with care: the assays were run in different laboratories. Values joined by “and” are separate records of one study, mostly repeats; a detail may differ.
SGK1 S422D: Serine/threonine-protein kinase Sgk1 (SGK1, Homo sapiens, UniProt O00141, S422D)
SGK1: Serine/threonine-protein kinase Sgk1 (SGK1, Homo sapiens, UniProt O00141)

With `Cc1cccc(-c2ccc3nc(NC(=O)C4CCOCC4)nn3c2)c1` the remaining activity was 100% (SGK1 S422D; enzyme activity, Dundee kinase panel; 10 µM).
`Cc1ccc(C(=O)Nc2ccc(CN3CCN(C)CC3)c(C(F)(F)F)c2)cc1C#Cc1cnc2cccnn12` gave a Hill slope of 1.96 (SGK1; target engagement, NanoBRET; human cells).
The remaining binding of `COc1c(Cl)cccc1Nc1c(-c2ccncc2C#C[C@@]2(C)CCCN2C(=O)/C=C/CN(C)C)[nH]c2c1C(=O)NCC2` is reported as 76% (SGK1; binding, competition with immobilised ligand; 3 µM).
The remaining activity of `Cc1cccc(-c2ccc3nc(NC(=O)C4CCCO4)nn3c2)c1` (stereo not shown) is reported as 103% (SGK1 S422D; enzyme activity, Dundee kinase panel; 10 µM).
For `CNC1C[S+]2CC[S+]3CC[S+](C1)[Ru-4]321([N]=C=S)[n]2c3ccc(OC)cc3c3c4c(c5cc(F)c[n+]1c5c32)C(=O)NC4=O` (stereo not shown), the remaining binding was 77% (SGK1; KinomeScan; 0.1 µM; baseline: untreated).
With `Cc1cccc(O[C@H]2CCC[C@@H](C(C)CNCc3ccncc3)C2)c1` (relative stereo) the inhibition was -24% (SGK1; enzyme activity, inhibitor; 10 µM).
`Nc1ncc2c(n1)-c1c([nH]c3ccc(C4=CCOCC4)cc13)CCC2` has a remaining binding of 63% (SGK1; binding, competition with immobilised ligand; 1 µM).
With `CN1CC[C@@H](COc2cnc(C#N)cc2-c2ccn3nc(NC(=O)C4CC4)cc3c2)C1` the inhibition was -4% (SGK1; enzyme activity, inhibitor; 1 µM).
With `Nc1ncc(-c2cc(-c3cnn(CC(F)(F)F)c3)ncc2F)nc1C(=O)NC1CNCC(F)C1` (stereo not shown) the remaining activity was 95.8% (SGK1; enzyme activity; 1 µM; baseline: DMSO control).
The remaining activity of `COCC12C(=O)NC3C4(C(OC)CC1O)C1CC5(O)C(OC)C(O)C(OC(C)=O)(C1C5OC(=O)c1ccccc1)C3(O)C(OC)C24` (stereo not shown) is reported as 110% and 100% (SGK1; kinase activity, inhibitor, ProQinase kinase profiling; 25 µM; baseline: control).
`C=CC(=O)Nc1cccc(-c2cnc3[nH]cc(C(=O)NC(C)(C)C)c3n2)c1` gave an inhibition of 5% and 6% (SGK1; kinase activity; 0.1 µM).
`c1ccc2c(Nc3cc(C4CCC4)[nH]n3)nc(Nc3ccc4nc[nH]c4c3)nc2c1` gave a remaining activity of 6% (SGK1; enzyme activity, inhibitor; 0.25 µM).
`O=C(Nc1cc(Cl)ccc1O)c1cnc(-c2ccncc2)s1` has an inhibition of 57.7% (SGK1 S422D; 10 µM).

Excerpt of the above:
`C=CC(=O)Nc1cccc(-c2cnc3[nH]cc(C(=O)NC(C)(C)C)c3n2)c1` gave an inhibition of 5% and 6% (SGK1; kinase activity; 0.1 µM).
With `Nc1ncc(-c2cc(-c3cnn(CC(F)(F)F)c3)ncc2F)nc1C(=O)NC1CNCC(F)C1` (stereo not shown) the remaining activity was 95.8% (SGK1; enzyme activity; 1 µM; baseline: DMSO control).
